Assay results gathered from unrelated publications.
Protocols differ between the studies behind these lines. Several values in a cell are separate wells, animals, samples, runs or records. Numbers after ± are the reported error.
ROCK2: Rho-associated protein kinase 2 (ROCK2, Homo sapiens, UniProt O75116)
Chain of UniProt O75116 (whole entry, looked up): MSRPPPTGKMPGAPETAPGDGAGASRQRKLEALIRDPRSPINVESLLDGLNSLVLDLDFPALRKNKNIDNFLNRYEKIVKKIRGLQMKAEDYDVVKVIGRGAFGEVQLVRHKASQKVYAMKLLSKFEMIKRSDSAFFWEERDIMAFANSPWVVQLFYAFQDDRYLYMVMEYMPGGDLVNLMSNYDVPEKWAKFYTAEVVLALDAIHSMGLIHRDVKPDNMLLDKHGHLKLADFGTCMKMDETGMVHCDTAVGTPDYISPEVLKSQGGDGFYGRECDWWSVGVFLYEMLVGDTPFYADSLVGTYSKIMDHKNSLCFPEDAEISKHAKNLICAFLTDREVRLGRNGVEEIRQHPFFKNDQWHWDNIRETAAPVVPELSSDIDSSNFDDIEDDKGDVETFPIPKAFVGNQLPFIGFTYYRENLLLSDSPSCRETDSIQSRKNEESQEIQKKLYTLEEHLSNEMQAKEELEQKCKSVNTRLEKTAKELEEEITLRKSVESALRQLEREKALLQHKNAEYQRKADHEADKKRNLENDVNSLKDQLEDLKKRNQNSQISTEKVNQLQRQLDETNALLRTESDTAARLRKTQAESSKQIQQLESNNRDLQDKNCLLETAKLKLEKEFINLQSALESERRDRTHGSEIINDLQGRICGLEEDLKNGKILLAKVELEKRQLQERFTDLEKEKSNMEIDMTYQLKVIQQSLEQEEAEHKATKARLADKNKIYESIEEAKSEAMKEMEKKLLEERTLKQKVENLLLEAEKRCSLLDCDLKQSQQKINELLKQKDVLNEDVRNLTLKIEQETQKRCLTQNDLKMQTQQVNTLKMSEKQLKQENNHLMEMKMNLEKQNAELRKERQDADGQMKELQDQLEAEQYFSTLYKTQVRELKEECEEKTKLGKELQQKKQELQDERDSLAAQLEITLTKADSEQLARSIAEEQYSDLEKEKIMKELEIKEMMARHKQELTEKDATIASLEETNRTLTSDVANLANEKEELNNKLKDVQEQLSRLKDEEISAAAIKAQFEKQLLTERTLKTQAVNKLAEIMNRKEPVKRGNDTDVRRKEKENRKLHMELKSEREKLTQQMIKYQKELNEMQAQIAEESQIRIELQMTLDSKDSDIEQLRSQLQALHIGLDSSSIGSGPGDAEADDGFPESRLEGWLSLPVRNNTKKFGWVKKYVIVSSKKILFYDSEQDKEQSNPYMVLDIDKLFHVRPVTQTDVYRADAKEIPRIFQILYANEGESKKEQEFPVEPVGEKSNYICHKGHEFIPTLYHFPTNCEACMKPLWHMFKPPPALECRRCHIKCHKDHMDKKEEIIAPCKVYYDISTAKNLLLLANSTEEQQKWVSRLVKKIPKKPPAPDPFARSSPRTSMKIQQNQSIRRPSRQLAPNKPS
Chain of UniProt P06276 (whole entry, looked up): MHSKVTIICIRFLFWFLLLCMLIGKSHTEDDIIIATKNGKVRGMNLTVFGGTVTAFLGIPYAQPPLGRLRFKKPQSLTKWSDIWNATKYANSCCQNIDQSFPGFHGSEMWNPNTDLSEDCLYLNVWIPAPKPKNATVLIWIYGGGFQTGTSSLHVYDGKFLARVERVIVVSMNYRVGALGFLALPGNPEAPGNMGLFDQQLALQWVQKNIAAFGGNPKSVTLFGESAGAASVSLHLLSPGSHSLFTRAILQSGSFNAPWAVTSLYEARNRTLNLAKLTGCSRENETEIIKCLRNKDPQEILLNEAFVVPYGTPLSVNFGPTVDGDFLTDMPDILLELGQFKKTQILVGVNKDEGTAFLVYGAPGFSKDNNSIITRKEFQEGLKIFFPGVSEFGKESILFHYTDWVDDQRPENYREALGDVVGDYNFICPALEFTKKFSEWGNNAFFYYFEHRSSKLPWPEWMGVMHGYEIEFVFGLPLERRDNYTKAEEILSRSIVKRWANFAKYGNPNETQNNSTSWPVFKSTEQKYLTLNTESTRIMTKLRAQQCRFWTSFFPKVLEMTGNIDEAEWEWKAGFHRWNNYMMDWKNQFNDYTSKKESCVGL
Chain of UniProt P62813 (whole entry, looked up): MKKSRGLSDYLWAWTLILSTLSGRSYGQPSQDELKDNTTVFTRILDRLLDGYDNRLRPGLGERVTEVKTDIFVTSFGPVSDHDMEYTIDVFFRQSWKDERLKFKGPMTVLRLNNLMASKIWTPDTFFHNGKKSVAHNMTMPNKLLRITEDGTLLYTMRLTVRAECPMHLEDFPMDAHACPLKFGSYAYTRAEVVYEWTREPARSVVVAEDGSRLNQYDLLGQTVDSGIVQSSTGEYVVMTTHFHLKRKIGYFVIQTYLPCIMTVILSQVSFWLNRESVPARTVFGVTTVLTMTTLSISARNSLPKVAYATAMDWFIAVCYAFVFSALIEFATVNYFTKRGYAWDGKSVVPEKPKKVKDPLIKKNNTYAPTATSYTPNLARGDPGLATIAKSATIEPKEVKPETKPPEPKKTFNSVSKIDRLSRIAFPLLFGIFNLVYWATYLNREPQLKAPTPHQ
Chain of UniProt P18508 (whole entry, looked up): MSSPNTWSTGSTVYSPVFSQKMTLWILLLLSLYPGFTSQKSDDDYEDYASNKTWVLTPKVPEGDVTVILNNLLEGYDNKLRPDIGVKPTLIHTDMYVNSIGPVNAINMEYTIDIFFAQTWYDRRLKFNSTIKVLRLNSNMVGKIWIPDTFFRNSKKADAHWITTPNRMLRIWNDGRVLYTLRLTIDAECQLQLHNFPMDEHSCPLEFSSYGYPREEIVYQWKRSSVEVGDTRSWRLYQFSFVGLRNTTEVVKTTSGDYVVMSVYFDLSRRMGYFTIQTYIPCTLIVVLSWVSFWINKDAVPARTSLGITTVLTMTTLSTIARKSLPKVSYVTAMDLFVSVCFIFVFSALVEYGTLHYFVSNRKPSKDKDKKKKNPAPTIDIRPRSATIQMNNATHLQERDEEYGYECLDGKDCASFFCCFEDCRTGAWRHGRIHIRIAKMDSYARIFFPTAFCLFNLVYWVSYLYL
Chain of UniProt P38489 (whole entry, looked up): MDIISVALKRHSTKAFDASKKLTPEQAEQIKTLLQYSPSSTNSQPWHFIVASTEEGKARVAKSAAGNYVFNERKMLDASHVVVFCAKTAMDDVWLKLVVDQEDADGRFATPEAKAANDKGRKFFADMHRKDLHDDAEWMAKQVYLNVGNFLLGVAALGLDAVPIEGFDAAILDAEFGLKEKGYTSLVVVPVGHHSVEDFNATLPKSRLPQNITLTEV
Chain of UniProt P10768 (whole entry, looked up): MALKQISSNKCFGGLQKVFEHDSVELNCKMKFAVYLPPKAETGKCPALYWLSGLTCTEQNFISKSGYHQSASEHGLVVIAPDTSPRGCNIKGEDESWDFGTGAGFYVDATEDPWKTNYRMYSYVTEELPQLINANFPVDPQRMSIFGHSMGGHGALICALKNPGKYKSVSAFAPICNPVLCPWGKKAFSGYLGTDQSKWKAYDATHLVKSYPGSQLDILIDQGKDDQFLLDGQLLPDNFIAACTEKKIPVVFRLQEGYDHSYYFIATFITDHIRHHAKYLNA
Chain of UniProt Q13464 (whole entry, looked up): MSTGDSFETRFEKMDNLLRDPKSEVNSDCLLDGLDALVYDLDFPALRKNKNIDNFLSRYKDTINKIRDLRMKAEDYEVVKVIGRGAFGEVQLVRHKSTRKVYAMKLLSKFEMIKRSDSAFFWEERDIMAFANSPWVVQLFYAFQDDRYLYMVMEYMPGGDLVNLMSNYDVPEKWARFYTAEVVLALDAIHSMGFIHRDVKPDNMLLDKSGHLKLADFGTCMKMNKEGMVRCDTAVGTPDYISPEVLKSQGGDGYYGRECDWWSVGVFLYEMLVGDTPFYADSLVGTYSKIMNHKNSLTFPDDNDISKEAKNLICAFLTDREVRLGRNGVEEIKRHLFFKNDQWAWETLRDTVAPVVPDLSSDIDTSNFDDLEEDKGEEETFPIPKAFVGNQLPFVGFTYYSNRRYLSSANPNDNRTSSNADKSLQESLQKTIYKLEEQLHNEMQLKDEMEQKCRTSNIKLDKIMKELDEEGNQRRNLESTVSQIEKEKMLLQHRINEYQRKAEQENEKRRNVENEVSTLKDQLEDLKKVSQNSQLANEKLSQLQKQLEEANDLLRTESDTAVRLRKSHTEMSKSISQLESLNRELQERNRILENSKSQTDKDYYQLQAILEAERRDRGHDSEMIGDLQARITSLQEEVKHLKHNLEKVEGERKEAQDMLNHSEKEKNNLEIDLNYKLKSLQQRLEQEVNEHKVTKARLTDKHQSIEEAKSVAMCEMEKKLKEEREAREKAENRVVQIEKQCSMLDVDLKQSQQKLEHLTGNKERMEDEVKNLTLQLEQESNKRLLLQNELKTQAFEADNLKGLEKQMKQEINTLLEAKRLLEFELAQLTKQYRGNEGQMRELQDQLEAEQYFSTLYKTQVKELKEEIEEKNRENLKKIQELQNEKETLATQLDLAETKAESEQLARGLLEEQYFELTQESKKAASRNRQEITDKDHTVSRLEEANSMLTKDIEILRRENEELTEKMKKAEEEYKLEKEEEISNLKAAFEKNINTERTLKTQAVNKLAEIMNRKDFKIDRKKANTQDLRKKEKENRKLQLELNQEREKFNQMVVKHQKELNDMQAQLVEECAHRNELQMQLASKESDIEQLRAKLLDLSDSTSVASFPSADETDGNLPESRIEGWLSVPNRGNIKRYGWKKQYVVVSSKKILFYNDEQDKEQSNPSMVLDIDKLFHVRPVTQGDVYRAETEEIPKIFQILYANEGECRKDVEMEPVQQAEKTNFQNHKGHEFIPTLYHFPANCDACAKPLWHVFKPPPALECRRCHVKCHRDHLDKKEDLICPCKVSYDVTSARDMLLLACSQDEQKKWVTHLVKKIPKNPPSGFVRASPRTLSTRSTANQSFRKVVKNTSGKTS
Chain of UniProt P22629 (whole entry, looked up): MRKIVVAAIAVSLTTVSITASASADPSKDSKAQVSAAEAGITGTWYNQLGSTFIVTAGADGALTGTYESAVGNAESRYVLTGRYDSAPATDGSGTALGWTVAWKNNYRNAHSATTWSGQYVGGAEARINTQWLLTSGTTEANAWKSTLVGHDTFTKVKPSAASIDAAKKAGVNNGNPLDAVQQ

Compound	target	test	test system	setting	how to read	measurement	value
C[C@@H](NCCCc1cccc(C(F)(F)F)c1)c1cccc2ccccc12	Cholinesterase (BCHE, Homo sapiens, UniProt P06276)	–	–	concentration not given, Triton	–	efficacy	-95.9 ± 21%
O=C(Nc1cccnn1)N1CCC(=Cc2cccc(Oc3ccc(C(F)(F)F)cn3)c2)CC1	HRH1 (Homo sapiens, UniProt P35367)	radioligand binding	–	50 µM, together with: [3H]pyrilamine	–	inhibition of binding	75%
Cc1onc(-c2c(Cl)cccc2Cl)c1C(=O)N[C@@H]1C(=O)N2[C@@H]1SC(C)(C)[C@@H]2C(=O)O	Penicillin-binding protein 1A (pbpA, Streptococcus pneumoniae, UniProt Q8DR59)	inhibitor	–	–	–	kinact/KI	12000 ± 990 M⁻¹ s⁻¹
Cc1c(Cl)c(=O)oc2cc(OCCCC[Se]C#N)ccc12	CA12 (Homo sapiens, UniProt O43570)	stopped-flow CO2 hydration	–	–	reference: Ki CA II over Ki CA XII	selectivity ratio	> 1400
Cc1cn([C@H]2C[C@H](O)[C@@H](COP(=O)(O)OP(=O)(O)OP(=O)(O)O)O2)c(=O)[nH]c1=O	Gag-Pol polyprotein, reverse transcriptase (gag-pol, Human immunodeficiency virus type 1 group M subtype B, UniProt P04585, K653N)	nucleotide misincorporation, steady-state kinetics	–	K66N RT, together with: matched template/primer, template T	–	kcat	0.189 ± 0.037 s⁻¹
CN(C(=O)n1cnc(-c2ccc[n+]([O-])c2)c1)C1CCCCC1	Protein S100-A16 (Rattus norvegicus, UniProt A0ACM8QDC9)	competitive ABPP with azido-FP probe	rat brain membrane fraction	10 µM, unit not given	reference: DMSO	probe labelling	-1.1
COc1cc(Nc2ncc(F)c(Nc3ccc4c(n3)NC(=O)C(C)(C)O4)n2)cc(OC)c1OC	RIOK3 (Homo sapiens, UniProt O14730)	KINOMEscan	–	10 µM	–	inhibition	87%
O=C(c1ccc(Cl)cc1)N1CCN2C(=O)N(OC(=O)N3CCOc4ccccc43)C(=O)C2C1 (stereo not shown)	S-formylglutathione hydrolase (Homo sapiens, UniProt P10768)	enzyme activity, inhibitor, MS-based ABPP	SW-620 conditioned medium	10 µM, 1 h, 37 °C	reference: compound over DMSO, lower = stronger inhibition	median ratio	1.07
COc1ccc(N2C(=O)N(c3c(C)cccc3Cl)Cc3cnc(Nc4ccc(C5CCN(C)CC5)cc4OC)nc32)nc1	ROCK1 (Homo sapiens, UniProt Q13464)	kinase activity	–	0.5 µM	–	inhibition	4%
CN(C(=O)n1cnc(-c2ccc[n+]([O-])c2)c1)C1CCCCC1	Patatin-like phospholipase domain-containing 6 (Rattus norvegicus, UniProt M0R715)	enzyme activity, ABPP	rat, brain	oral, 100 mg/kg/day, 28 days	reference: vehicle	fold change	-2.7
O=C(Nc1cnccc1Cl)N1CCN(Cc2ccc3c(c2)OC(F)(F)O3)CC1	CCKBR (Homo sapiens, UniProt P32239)	radioligand binding	–	concentration not given	–	inhibition	1%
CC[C@@H](C)[C@@H](NC(=O)[C@@H](Cc1ccc(O)cc1)NC(=O)[C@H]1CCCN1C(=O)[C@@H](CCCNC(=N)N)NC(=O)[C@H](N)Cc1c[nH]cn1)C(=O)N[C@H](C)C(=O)N[C@H](Cc1c[nH]cn1)C(=O)N[C@H](CCCNC(=N)N)C(=O)N[C@H](CCCCNC(=O)c1cccc(S(=O)(=O)F)c1)C(=O)N[C@H](Cc1ccc(O)cc1)C(=O)N[C@H](CO)C(=O)N[C@H](Cc1ccccc1)C(N)=O	Transferrin receptor protein 1 (Tfrc, Mus musculus, UniProt Q62351)	flow cytometry	RAW264.7	24 h, pH 6, replicate 3, unit not given	reference: 0 h	surface TFRC expression	0.926
Cc1ccc([C@H]2C[C@@H]2COc2cc(NCc3nnc(C)s3)nc(C)n2)nc1	PDE3A (Homo sapiens, UniProt Q14432)	enzyme activity, inhibitor, IMAP fluorescence polarization	–	–	reference: Ki target over Ki PDE10A2	selectivity ratio	> 1.72e+06 fold
Oc1ccc(-c2ccc(Cl)cc2)c(Cl)c1	Androgen receptor (AR, Homo sapiens, UniProt P10275)	reporter gene, antagonist	–	5 µM, together with: DHT 2 nM	reference: DHT 2 nM	maximum activity	9%
CCN(C)C(=O)Oc1ccc(CCC(=O)N2CCc3ccccc3C2)cc1OC	Cholinesterase (BCHE, Equus caballus, UniProt P81908)	Ellman	equine serum BuChE	–	reference: AChE IC50 over BuChE IC50	selectivity ratio	1.5
CN1CCN(c2cc(-c3ccncc3)c(-c3ccc4ccccc4c3)nn2)CC1	CXCR3 (Homo sapiens, UniProt P49682)	agonist, FLIPR	–	12.5 µM	–	activation	0.5%
C[C@H]1CN(c2n[nH]c3nc(N[C@H]4CC[C@H](NS(=O)(=O)CCC(F)(F)F)CC4)ncc23)CCO1	ROCK2	inhibitor, Kinobeads competition profiling	–	0.032 µM	reference: vehicle	relative abundance	1.03
CCCCOP(=O)(O)C(C)=O	dxs (Pseudomonas aeruginosa, UniProt Q9KGU7, R106A)	–	–	concentration not given, variant enzyme	reference: wild type	Ki fold change	11 fold and ~11 fold
CCCCCCCCCCC[C@@H](C[C@@H]1OC(=O)[C@H]1CCCCCC)OC(=O)[C@H](CC(C)C)NC=O	Cholinesterase (BCHE, Homo sapiens, UniProt P06276)	–	–	concentration not given, Triton	–	efficacy	-73.8 ± 6.76%
CC[C@H](C)[C@@H]1NC(=O)[C@H](C(C)C)NC(=O)[C@H](Cc2ccc(O)cc2)NC(=O)[C@H](Cc2ccccc2)NC(=O)[C@H](CCC(N)=O)NC(=O)[C@@H]2CCCN2C(=O)[C@H](Cc2c[nH]cn2)NC(=O)[C@H](Cc2ccc(O)cc2)NC(=O)[C@H](Cc2c[nH]cn2)NC(=O)[C@@H](NC(=O)[C@H](C)N)CSSC[C@@H](C(=O)N[C@@H](CO)C(=O)NCC(N)=O)NC1=O	Streptavidin (Streptomyces avidinii, UniProt P22629)	surface plasmon resonance	–	pH 7.4, 25 °C, 2% DMSO, 0.005% Tween-20, 1:1 model	–	dissociation rate constant	1.1e-08 s⁻¹
Nc1ncnc2c1ncn2[C@@H]1O[C@H](COP(=O)(O)OP(=O)(O)NP(=O)(O)O)[C@@H](O)[C@H]1O	Cell cycle histidine kinase CckA, cytoplasmic region (Caulobacter vibrioides, UniProt Q9X688)	ITC	–	12 °C, together with: c-di-GMP 100 µM	–	-TΔS	-3 kcal/mol
COc1c(N2CC3CCCNC3C2)c(F)cc2c(=O)c(C(=O)OCc3cnc([N+](=O)[O-])s3)cn(C3CC3)c12.O=C(O)C(F)(F)F (stereo not shown)	nfsB (Escherichia coli K-12, UniProt P38489)	substrate, fluorimetry, measured: moxifloxacin release	–	10 µM, together with: NADH 100 µM	–	time to near complete conversion	< 30 s
COc1cc(N)c(Cl)cc1C(=O)NC1CN2CCC1CC2 (stereo not shown)	Trace amine-associated receptor 9 (TAAR9, Homo sapiens, UniProt Q96RI9)	β-arrestin recruitment, TANGO luminescence, measured: TAAR9	–	concentration not given	reference: basal luminescence	log2 fold change	0.079
C=CCNCC(=O)O	putA (Sinorhizobium meliloti, UniProt F7X6I3)	FAD reduction, substrate, stopped-flow	–	5 mM, anaerobic	–	kobs	4.2 s⁻¹
[2H]c1c([2H])c([C@]2([2H])CCCN2C(=O)C(C)(C)Oc2ccc3cn[nH]c3c2)c([2H])c([2H])c1C([2H])([2H])[2H]	ROCK2	KINOMEscan	–	1 µM	reference: DMSO control	remaining binding	99%
CC[C@H](C)[C@H]1O[C@]2(C=C[C@@H]1C)C[C@@H]1C[C@@H](C/C=C(\C)[C@@H](O[C@H]3C[C@H](OC)[C@@H](O[C@H]4C[C@H](OC)[C@@H](O)[C@H](C)O4)[C@H](C)O3)[C@@H](C)/C=C/C=C3\CO[C@@H]4[C@H](O)C(C)=C[C@@H](C(=O)O1)[C@]34O)O2	GABA-A receptor; alpha-1/beta-2/gamma-2 (Rattus norvegicus, UniProt P18508+P62813+P63138)	membrane potential, agonist, QP-DHM fluorescence	HEK293 expressing GABAA	–	reference: GABA	maximal response	72%
Nc1nc2c(ncn2[C@@H]2O[C@H](COP(=O)(O)OP(=O)(O)OP(=O)(O)O)[C@@H](O)[C@H]2O)c(=O)[nH]1	GTP 3',8-cyclase (moaA, Staphylococcus aureus, UniProt P69848)	substrate	–	–	–	Km	3.1 ± 0.7 µM
Cc1[nH]c(C)c(S(=O)(=O)Nc2ccc(S(F)(F)(F)(F)F)cc2)c1C(=O)N1CCC(F)(F)C1	DRD3 (Homo sapiens, UniProt P35462)	β-arrestin recruitment, agonist, PathHunter	–	–	reference: dopamine	Imax	99 ± 3%
